{"data": "Experimental data from different studies", "note": "Each line is one published result; not all experiments were run side by side. Several values in a cell are separate wells, animals, samples, runs or records. ± gives the spread as reported."}
{"Compound": "CNS(=O)(=O)Nc1nccc(Cc2c(C)c3ccc(Oc4ncccc4F)cc3oc2=O)c1F", "cell line": "ARH-77", "assay": "cell viability", "setting": "7 days", "measurement": "IC50", "value": "> 1000 nM"}
{"Compound": "Cn1ncc(-c2ccc3c(=O)[nH]nc(CN)c3c2)c1-c1c(F)c(Cl)cc(OC2CC2)c1C#N", "cell line": "SCC-9", "assay": "cell viability, inhibitor, CellTiter-Glo", "setting": "120 h, baseline-subtracted", "measurement": "IC50", "value": "1380 nM"}
{"Compound": "COC(=O)c1cc(NC2=NC(=O)C(=Cc3ccc(N(C)C)cc3)S2)ccc1OC(C)=O", "cell line": "MCF7", "assay": "GC-MS, item: Hydroxylamine", "setting": "1 µM", "scale": "baseline: DMSO", "measurement": "metabolite level", "value": "0.27 fold change"}
{"Compound": "CCN(CC)CC(=O)Nc1cccc(-n2cc(-c3ccc4ccc(-c5cn(-c6cccc(NC(=O)CN(CC)CC)c6)nn5)cc4c3)nn2)c1", "cell line": "RCC4", "assay": "PCR angiogenesis array, item: IL6", "setting": "5 x IC50, 4 h, normoxia", "scale": "baseline: untreated", "measurement": "fold regulation", "value": -1.29}
{"Compound": "COc1ccc(NC(=O)CSc2nc3c(oc4ccccc43)c(=O)n2Cc2ccco2)cc1Cl", "cell line": "LDR", "assay": "silenced CMV-GFP reporter derepression, qHTS", "measurement": "efficacy", "value": "72%"}
{"Compound": "Cc1cc(NC2CCN(C)CC2)ccc1-c1cc2c(N3CCC[C@H](C(=O)Nc4ccc(C#N)cc4)C3)ncnc2[nH]1", "cell line": "NCI-H2228", "assay": "cell growth or viability, MTT", "setting": "1 µg/mL, 72 h", "measurement": "inhibition", "value": "81.5%"}
{"Compound": "Cc1ncsc1-c1ccc(C(C)NC(=O)C2CC(O)CN2C(=O)C(NC(=O)CCCCCCCCCCN2CCCC(Nc3ncc(Cl)c(Nc4ccccc4S(=O)(=O)C(C)C)n3)C2)C(C)(C)C)cc1 (stereo not shown)", "cell line": "22Rv1", "assay": "RNA-seq, item: ZIC5 mRNA", "setting": "concentration not given", "scale": "baseline: DMSO", "measurement": "log2 fold change", "value": -2.87}
{"Compound": "O=C(NCc1ccc(OC(F)(F)F)cc1)[C@H]1CCCN(c2ncnc3[nH]c(-c4cccs4)cc23)C1", "cell line": "NCI-H2228", "assay": "cell growth or viability, MTT", "setting": "1 µg/mL, 72 h", "measurement": "inhibition", "value": "70.5%"}
{"Compound": "COc1cccc(/C=N/Nc2nc(Nc3ccccc3)nc(-n3nc(C)cc3C)n2)c1O", "cell line": "LDR", "assay": "silenced CMV-GFP reporter derepression, qHTS", "measurement": "Emax", "value": "83%"}
{"Compound": "CCNc1cc2c(cc1C)C1(c3cc(C)c(NCC)cc3O2)c2ccccc2C(=O)N1N=Cc1c[c-]c(-c2ccccn2)cc1.Cc1c(C)c(-c2ccc(-c3ccccc3)cc2)[c-](C)c1C.[Cl-].[Ir+3]", "cell line": "A549", "assay": "PI flow cytometry", "setting": "1 x IC50, 24 h", "measurement": "S phase cells", "value": "31.3 ± 0.39%"}
{"Compound": "Cc1ccc(-n2cc(CSc3nc4ccccc4n3Cc3cn(-c4ccc(C)cc4)nn3)nn2)cc1", "cell line": "MDA-MB-231", "assay": "MTT", "setting": "500 ppm", "measurement": "cytotoxicity", "value": "93.4%"}
{"Compound": "CN1CCCNC(=O)c2cccc(c2)C(=O)NCCCN(C)CCCNc2cccc3c2C(=O)c2cccc(c2C3=O)NCCC1", "cell line": "SAS", "assay": "RNA-Seq, item: MTAP mRNA", "setting": "1 µM, 6 h", "scale": "baseline: untreated cells", "measurement": "log2 fold change", "value": -1.23}
{"Compound": "O=C(C[Se]C(=O)c1ccccc1Nc1ccccc1)Nc1cccc(C(F)(F)F)c1", "cell line": "NCI60 renal subpanel", "assay": "cell growth", "setting": "10 µM, 48 h, one-dose", "measurement": "mean growth percent", "value": "-79.6%"}
{"Compound": "Cn1ncc2cc(-c3cncc(Cl)c3N3CCC4(CCNC4=O)CC3)ccc21", "cell line": "LS174T", "assay": "gene expression, microarray, item: DIO2 mRNA", "setting": "concentration not given, 4 h", "scale": "baseline: untreated cells", "measurement": "log2 fold change", "value": -1.49}
{"Compound": "COc1ccc2c(c1)OC1=C(C(=O)CCC1)C2c1c[nH]c2ccccc12 (stereo not shown)", "cell line": "3T3-L1 adipocytes", "assay": "qPCR, item: GLUT4", "setting": "IC20, 14 days", "scale": "baseline: untreated mature adipocytes", "measurement": "mRNA level", "value": "decreased"}
{"Compound": "Cc1cc(NC2CCN(C)CC2)ccc1-c1cc2c(N3CCC[C@H](C(=O)N4CCCC4)C3)ncnc2[nH]1", "cell line": "NCI-H2228", "assay": "cell growth or viability, MTT", "setting": "5 µg/mL, 72 h", "measurement": "inhibition", "value": "76.7%"}
{"Compound": "CCCCCCc1cccc([C@H](O)C[C@H](CO)NC(=O)CCCCCCCCCCBr)c1", "cell line": "HeLa", "assay": "CERT activity, HPLC-MS/MS lipidomics, item: ceramide 22", "setting": "1 µM, 24 h, not cell-number normalised", "measurement": "ceramide level", "value": "2030 pmol/sample and 1800 pmol/sample and 1600 pmol/sample"}
{"Compound": "Cc1cc(NC2CCN(C)CC2)ccc1-c1cc2c(N3CCC[C@H](C(=O)Nc4cccc(Cl)c4)C3)ncnc2[nH]1", "cell line": "NCI-H2228", "assay": "cell growth or viability, MTT", "setting": "5 µg/mL, 72 h", "measurement": "inhibition", "value": "86.6%"}
{"Compound": "N#Cc1cccc(/C=C/C(=O)c2ccc(O)cc2)c1", "cell line": "U-87 MG", "assay": "item: PPAN", "setting": "concentration not given", "scale": "baseline: untreated", "measurement": "fold change", "value": 0.062}
{"note": "A few entries again:"}
{"Compound": "Cc1cc(NC2CCN(C)CC2)ccc1-c1cc2c(N3CCC[C@H](C(=O)Nc4cccc(Cl)c4)C3)ncnc2[nH]1", "cell line": "NCI-H2228", "assay": "cell growth or viability, MTT", "setting": "5 µg/mL, 72 h", "measurement": "inhibition", "value": "86.6%"}
{"Compound": "CCN(CC)CC(=O)Nc1cccc(-n2cc(-c3ccc4ccc(-c5cn(-c6cccc(NC(=O)CN(CC)CC)c6)nn5)cc4c3)nn2)c1", "cell line": "RCC4", "assay": "PCR angiogenesis array, item: IL6", "setting": "5 x IC50, 4 h, normoxia", "scale": "baseline: untreated", "measurement": "fold regulation", "value": -1.29}
{"Compound": "Cc1ccc(-n2cc(CSc3nc4ccccc4n3Cc3cn(-c4ccc(C)cc4)nn3)nn2)cc1", "cell line": "MDA-MB-231", "assay": "MTT", "setting": "500 ppm", "measurement": "cytotoxicity", "value": "93.4%"}
